Published values pooled from the literature.
Numbered parts are unrelated; each lists some results of a single study. Positions count from the first letter of the parent shown.

Set 1 — target: CCND3, cyclin fold, Cln2 fusion (human); method: yeast growth competition, sequencing; matrix: yeast; notes: weak parent motif; reference: not given; reading: higher = stronger binding
Starting sequence: TICRR docking peptide (human); TKVRRNLFNQELL
Change | normalised enrichment score
TKVRRNLFNAELL [Q10A] | 0.06
TKVRKNLFNQELL [R5K] | 0.333
TKVRRNLLNQELL [F8L] | 0.762
TKVARNLFNQELL [R4A] | 0.109
TKVRRALFNQELL [N6A] | 0.08
TAVRRNLFNQELL [K2A] | 0.265
TKVRRNLFNQALL [E11A] | 0.295
TKVRRNLANQELL [F8A] | 0.032
TKVRRNAFNQELL [L7A] | 0.135
TKVRANAFNQELL [R5A L7A] | -0.121

Set 2 — method: aptamer microarray, sandwich; form: DNA with 2'F-ANA; matrix: in vitro; concentration: 200 nM; added: Cy3 exosite-II aptamer, 400 nM; reading: higher = stronger binding; sequence: GGTTGGTGTGGTTGG
Target: Prothrombin, mature alpha-thrombin (F2, Homo sapiens, UniProt P00734)
Notes: whole 15-mer aptamer, many near background
Modification | mean fluorescence intensity [a.u.]
2'F-ANA at 1 2 5 6 7 8 9 10 11 12 15 | 66.3
2'F-ANA at 1 7 9 12 13 14 | 64.9
2'F-ANA at 3 4 8 10 12 13 | 293
2'F-ANA at 1 2 4 6 8 11 13 15 | 83.2
2'F-ANA at 6 8 10 12 13 15 | 173
2'F-ANA at 1 2 4 7 8 10 12 15 | 65.4
2'F-ANA at 2 3 4 6 11 13 15 | 359
2'F-ANA at 1 2 3 4 8 9 11 13 15 | 127
2'F-ANA at 1 2 6 8 10 13 15 | 51.4
2'F-ANA at 3 4 6 7 8 10 15 | 269
2'F-ANA at 3 4 5 6 8 10 12 14 | 53.8
2'F-ANA at 1 3 5 7 12 14 15 | 44
2'F-ANA at 2 3 4 6 8 9 10 11 12 15 | 219
2'F-ANA at 2 4 5 8 9 10 11 12 | 49.3
2'F-ANA at 1 6 7 8 9 13 14 | 56.1
2'F-ANA at 3 7 8 9 10 11 13 | 664

Set 3 — method: DHFR PCA, deep sequencing; matrix: yeast; added: (+)-ABA 4.8 µM; reference: wild-type fitted maximum; reading: higher = stronger binding
Target: ABI1, truncated, D143A, DHFR fusion (Arabidopsis thaliana)
Notes: methotrexate growth selection, single substitutions
Starting sequence: PYL1, truncated, DHFR fusion (Arabidopsis thaliana); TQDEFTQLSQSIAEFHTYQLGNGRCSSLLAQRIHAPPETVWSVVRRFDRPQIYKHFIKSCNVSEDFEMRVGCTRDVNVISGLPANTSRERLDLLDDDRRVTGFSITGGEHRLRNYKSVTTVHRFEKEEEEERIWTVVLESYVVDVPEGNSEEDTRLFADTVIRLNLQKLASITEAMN; partner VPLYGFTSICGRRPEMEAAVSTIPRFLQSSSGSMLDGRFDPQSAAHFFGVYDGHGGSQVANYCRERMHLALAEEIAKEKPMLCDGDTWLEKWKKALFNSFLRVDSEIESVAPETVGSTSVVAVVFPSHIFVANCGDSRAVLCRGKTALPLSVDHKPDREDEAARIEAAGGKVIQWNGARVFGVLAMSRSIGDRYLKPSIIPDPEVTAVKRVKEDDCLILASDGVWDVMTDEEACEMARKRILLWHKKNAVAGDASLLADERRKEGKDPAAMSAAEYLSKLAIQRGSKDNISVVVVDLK
Change | relative binding score
R132C | 83.1%
V118I | 77.1%
A13W | 36.4%
D92K | -19.7%
L82P | 26.1%
L112T | -0.591%
I57N | -1.3%
E89M | 2.66%
H34R | 65%
S42M | 48.5%
P36G | 23.5%
A84I | 9.74%
T135S | 67%
E14L | 37.8%
T39Q | 62%
C72Q | 70.3%
V142D | 18.3%

Set 4 — method: protein binding microarray; form: double-stranded DNA, one strand shown; matrix: in vitro; concentration: not given; reference: not given; reading: higher = stronger binding
Target: Histone acetyltransferase KAT6A, winged helix 1, GST fusion (KAT6A, Homo sapiens, UniProt Q92794, residues 1-85)
Notes: 8-mer, flanks averaged, mean of 2 arrays, mostly near background
Target sequence (chain): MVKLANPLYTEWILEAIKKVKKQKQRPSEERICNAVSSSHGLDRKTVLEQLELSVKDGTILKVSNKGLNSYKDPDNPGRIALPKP
Sequence | E-score
GGTGTGCA | -0.182
GACACCTC | -0.0119
CGCGCGAC | 0.432
GCGGCTAA | 0.308
ACGGGGAT | 0.234
GTGGGGGA | -0.0822
GAGTAAGC | 0.0244
GGGATACC | 0.111
AACACGAA | -0.0337
ATACGTGA | -0.0775
AAGCTATA | -0.0643
ACATATTG | -0.156
CAGGGCGA | 0.0517
CAATCACG | 0.171
AGGTATCA | -0.245
AGTGTATG | -0.101
GAATATTA | -0.00392
ACTTGCAT | -0.178
ATGTCAGG | -0.128
GCCCAGCC | -0.0532
ATCGATCC | -0.011

Set 5 — method: RNA Bind-n-Seq; form: RNA; matrix: in vitro; concentration: not given; reference: input RNA pool; reading: higher = stronger binding
Target: RING finger protein unkempt homolog, zinc fingers 1-6, GST-SBP tag (UNK, Homo sapiens, UniProt Q9C0B0, residues 30-357)
Notes: RNA with constant flanks, human and mouse sites, ends assumed
All sequences stand within: GGGAGUUCUACAGUCCGACGAUC … CAACAGAGGAUUGAGCAUCA
Construct (chain): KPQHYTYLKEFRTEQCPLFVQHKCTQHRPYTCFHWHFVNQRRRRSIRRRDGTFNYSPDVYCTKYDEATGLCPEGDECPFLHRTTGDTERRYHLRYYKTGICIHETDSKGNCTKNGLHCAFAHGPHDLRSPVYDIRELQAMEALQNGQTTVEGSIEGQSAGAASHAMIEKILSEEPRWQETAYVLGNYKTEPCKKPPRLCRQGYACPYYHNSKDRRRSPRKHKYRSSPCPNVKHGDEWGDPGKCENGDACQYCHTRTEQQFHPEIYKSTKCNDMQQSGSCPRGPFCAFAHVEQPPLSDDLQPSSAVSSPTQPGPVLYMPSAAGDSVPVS
Sequence | bound/input enrichment [ratio]
AAAGCCAUCUUUUCCACAUUUUCUGUAAAUAAUGGAUAAUCAUUUUAAAAAUUUUUAUUUUUAGUGCUGUUUUAACAAUGUAGAUAGAUCAUAAAUGUACUUGCUGAAUUCAAUCAUUUU | 9.13
ACCUCCCAAGUCCUUUAUGAAUGGGAGCAAGGCUUUUCCCAGUCCUUCACGCAAGAGCAAGUAGCUGAUAUUGACGGGCAGUAUGCAAUGACUAGGGCUCAGAGGGUCCGAGCUGCCAUG | 0.17
CAGGAAACCCUGGGAGAGUCUGGGAGUUUACUUCCAAAUAAAUUGAAUAAGUUGUUACAGAGGUUUCCUAACAAACCUUACCUCAGCUGAAAAUGGACAAGUAUUUUCAAUGACUGAAAU | 0.261
CCAAAACUGAAACUGUGGAUGGCAGCCAUGAAGGAAGAUCCCACAGUCUCAGCCCUGCUUACUAGUGAGAAAGACUGGCAAGGUUUCCUAGAGCUCUACUUACAGAACAGCCCUGAGGCC | 0.115
CUCGAUAAUUGCUUGUGUGUCAAUGGGGAAAUCGAAGGCCUGAAUGACACCUUUAAGGAACUGGAGUUUCUUAGCAUGGCCAACGUGGAGUUGAGUUCCUUGGCCCGGCUUCCCAGCUUG | 0.0778
CCUUGGCGGAUUGUAAGCUGCUGGUUUUGCGGCUGGGAAGAGCGGCGAGAGGGUUCGGCAUUUUUCGUCGGGAUCCCCGCAAGGAUGAGUGCUGCCAGAGAGUCUCACCCGCAUGGGGUG | 0.147
ACAGCUAGUGGCUGCUUGGUUGAAAGGAGGCAUUGACUUCAGCAACACAAUUAUGUUUUUAUUAGGAAUGUGCCAUACCGAAUCCGUGUGCGGCUGUCCAGAAAACGUAAUGAGGAUGAA | 0.15
CGCAGAGCUAAAAGGAGAAAUAUGGAGAGGCUGACUCUUGCUUGUGGUGGGGUAGCCCUGAAUUCUUUUGACGACCUAAGUCCUGACUGCUUGGGACAUGCAGGACUUGUAUAUGAGUAU | 0.47
AUUCCCUCCAAAAUCAUCAGUUUAUCGGUGGUGCCAGGGGGUUGUGGUAUCAAAGAGAAGGUUAGCCCGGGACUUCUGCAAGUAGGGCAGUCUUCAACAUCUGUGGGAGAUAAAGGAAUU | 0.169
UUUAUGCACAUACUUAAAGGACAGAAAUGUCUGGUAAAGUAAUUGUUAAAUAAUGAUAUGUAGCUUUUUAACUUUUUAAAUAAAUAAGAUUUUUUAAUGUGGGUCUCCCUCAGGGUUGUU | 17.3
UAAAACUGUAACAUAUCUCUUAUAUAUUAAAAAAAAAAACCUUUAAAAGUUUUAAAGAGAAAUUGCAUUAAUACAGAUUGAAGUAUUUUAUUCUUUUUUUGACUUGAAAAAUUAUAUUUC | 1.06

Set 6 — target: CEP164, C-terminal peptide (human); method: DHFR complementation, deep sequencing; matrix: yeast; reference: wild type; reading: higher = weaker binding
Notes: single substitutions, model-inferred values
Starting sequence: PDZK1, PDZ domain 2 (human); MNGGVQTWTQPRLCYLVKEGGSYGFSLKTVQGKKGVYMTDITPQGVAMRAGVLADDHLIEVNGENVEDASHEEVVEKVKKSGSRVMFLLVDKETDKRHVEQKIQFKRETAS; partner HNRVKVYRF
Change | binding free energy change [kcal/mol]
L16H | 1.41
T42N | 0.426
D91G | -0.21
P11D | 0.494
V66S | 0.706
F87L | 0.182
E100Q | -0.11
V52T | 1.5
E19D | 0.0279
K80S | 0.502
R97W | -0.069
E60V | 0.242
L13Q | -0.0849
Y37L | 0.54
V30E | -0.31
S83I | 0.218
D68S | 0.107
K79E | 0.736
K102G | -0.127
V30D | 0.196
G4K | -0.012
A110F | -0.142
I59E | 1.72
V66R | 0.888
G32D | 0.0987

Further values, each from its own experiment
Molecule | target | test | test system | setting | scale | endpoint | value
PhoQ, residues 284 288 289 292 302 303 ALAMYF | PhoP, residues 12 14 15 18 19 VHSCL (Escherichia coli, UniProt P23836) | Sort-seq, refers to: YFP reporter | E. coli | PhoQ-PhoP variant library, added: 10 µM Mg2+ | reference: high Mg2+ state, higher = stronger signaling | fold induction | 1.77

For quick reference, copied from above (set 4):
Sequence | E-score
GACACCTC | -0.0119
CGCGCGAC | 0.432
GCGGCTAA | 0.308
ACGGGGAT | 0.234
GTGGGGGA | -0.0822
GAGTAAGC | 0.0244
GGGATACC | 0.111
AACACGAA | -0.0337
ATACGTGA | -0.0775
AAGCTATA | -0.0643
ACATATTG | -0.156
CAGGGCGA | 0.0517
CAATCACG | 0.171
AGGTATCA | -0.245
AGTGTATG | -0.101
GAATATTA | -0.00392
